Experimental data gathered from unrelated publications.
Each numbered part is a random draw from the data of one study; scales do not carry over between parts.
Chain of UniProt Q13164 (whole entry, looked up): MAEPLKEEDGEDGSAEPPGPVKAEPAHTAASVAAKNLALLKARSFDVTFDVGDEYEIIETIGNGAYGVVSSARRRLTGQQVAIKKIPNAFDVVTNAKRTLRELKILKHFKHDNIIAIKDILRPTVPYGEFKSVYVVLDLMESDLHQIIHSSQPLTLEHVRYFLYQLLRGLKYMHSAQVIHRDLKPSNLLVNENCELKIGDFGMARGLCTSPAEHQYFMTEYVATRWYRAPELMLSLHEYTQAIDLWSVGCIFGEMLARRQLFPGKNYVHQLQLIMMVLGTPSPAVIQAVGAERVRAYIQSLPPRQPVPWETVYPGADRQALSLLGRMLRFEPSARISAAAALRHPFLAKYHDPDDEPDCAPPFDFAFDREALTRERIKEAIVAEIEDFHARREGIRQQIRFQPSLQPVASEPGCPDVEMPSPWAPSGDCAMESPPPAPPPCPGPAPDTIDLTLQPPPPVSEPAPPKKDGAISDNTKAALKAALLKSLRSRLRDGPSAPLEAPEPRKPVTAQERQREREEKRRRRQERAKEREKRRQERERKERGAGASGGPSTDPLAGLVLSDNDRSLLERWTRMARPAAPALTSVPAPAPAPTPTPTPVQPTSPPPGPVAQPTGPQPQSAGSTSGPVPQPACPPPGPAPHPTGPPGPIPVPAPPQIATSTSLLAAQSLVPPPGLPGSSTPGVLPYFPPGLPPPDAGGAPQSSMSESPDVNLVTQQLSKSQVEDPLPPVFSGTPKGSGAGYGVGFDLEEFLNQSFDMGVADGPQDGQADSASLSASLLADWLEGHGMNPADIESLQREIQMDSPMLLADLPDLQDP
Chain of UniProt Q9Y5N1 (whole entry, looked up): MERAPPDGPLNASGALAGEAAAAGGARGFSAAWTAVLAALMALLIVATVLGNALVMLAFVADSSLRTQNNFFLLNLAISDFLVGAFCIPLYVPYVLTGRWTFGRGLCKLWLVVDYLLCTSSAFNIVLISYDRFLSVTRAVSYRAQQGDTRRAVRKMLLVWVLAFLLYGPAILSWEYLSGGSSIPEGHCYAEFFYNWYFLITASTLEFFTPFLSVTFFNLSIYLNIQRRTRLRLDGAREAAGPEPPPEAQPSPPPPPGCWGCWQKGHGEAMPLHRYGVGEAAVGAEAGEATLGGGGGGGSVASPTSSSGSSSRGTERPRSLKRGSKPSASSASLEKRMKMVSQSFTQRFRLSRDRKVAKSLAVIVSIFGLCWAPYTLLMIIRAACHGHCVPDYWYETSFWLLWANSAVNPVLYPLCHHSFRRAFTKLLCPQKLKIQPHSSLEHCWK
Chain of UniProt P42336 (whole entry, unmodified, looked up): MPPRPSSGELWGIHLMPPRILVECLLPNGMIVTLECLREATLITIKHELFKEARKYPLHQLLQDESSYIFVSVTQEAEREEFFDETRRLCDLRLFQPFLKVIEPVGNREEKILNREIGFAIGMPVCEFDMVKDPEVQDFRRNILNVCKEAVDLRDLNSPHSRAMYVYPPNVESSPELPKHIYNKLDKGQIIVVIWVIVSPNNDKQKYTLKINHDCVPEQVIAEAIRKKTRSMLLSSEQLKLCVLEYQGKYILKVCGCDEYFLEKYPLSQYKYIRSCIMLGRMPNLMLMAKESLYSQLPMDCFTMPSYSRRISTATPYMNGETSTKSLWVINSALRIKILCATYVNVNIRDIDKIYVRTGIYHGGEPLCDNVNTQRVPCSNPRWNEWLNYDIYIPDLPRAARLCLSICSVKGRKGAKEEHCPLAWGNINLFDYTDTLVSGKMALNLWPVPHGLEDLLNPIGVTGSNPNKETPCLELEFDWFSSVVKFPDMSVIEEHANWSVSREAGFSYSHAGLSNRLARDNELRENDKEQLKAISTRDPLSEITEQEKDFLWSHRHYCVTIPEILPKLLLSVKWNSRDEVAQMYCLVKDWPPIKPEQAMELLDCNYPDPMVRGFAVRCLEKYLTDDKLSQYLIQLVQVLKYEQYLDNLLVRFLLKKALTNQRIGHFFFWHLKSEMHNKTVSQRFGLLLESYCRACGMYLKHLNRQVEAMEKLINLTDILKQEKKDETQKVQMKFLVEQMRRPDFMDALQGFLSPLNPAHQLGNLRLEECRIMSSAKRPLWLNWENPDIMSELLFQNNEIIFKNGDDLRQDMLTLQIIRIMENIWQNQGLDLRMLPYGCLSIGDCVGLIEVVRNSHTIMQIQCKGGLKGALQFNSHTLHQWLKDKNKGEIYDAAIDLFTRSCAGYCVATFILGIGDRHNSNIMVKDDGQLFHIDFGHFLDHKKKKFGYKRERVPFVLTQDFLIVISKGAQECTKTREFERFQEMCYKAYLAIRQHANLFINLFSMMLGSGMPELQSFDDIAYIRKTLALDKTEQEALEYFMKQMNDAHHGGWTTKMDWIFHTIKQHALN
Chain of UniProt P35462 (whole entry, looked up): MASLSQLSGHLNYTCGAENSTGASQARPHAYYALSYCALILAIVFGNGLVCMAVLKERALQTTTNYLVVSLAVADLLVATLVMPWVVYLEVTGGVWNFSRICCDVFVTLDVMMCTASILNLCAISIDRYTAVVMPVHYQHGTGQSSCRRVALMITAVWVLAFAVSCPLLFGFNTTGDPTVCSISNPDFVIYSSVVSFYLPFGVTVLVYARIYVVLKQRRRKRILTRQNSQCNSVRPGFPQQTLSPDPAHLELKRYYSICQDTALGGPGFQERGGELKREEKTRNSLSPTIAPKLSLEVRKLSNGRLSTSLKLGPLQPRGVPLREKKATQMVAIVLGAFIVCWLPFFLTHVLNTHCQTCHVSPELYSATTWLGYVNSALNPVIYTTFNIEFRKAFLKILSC
Chain of UniProt P25021 (whole entry, looked up): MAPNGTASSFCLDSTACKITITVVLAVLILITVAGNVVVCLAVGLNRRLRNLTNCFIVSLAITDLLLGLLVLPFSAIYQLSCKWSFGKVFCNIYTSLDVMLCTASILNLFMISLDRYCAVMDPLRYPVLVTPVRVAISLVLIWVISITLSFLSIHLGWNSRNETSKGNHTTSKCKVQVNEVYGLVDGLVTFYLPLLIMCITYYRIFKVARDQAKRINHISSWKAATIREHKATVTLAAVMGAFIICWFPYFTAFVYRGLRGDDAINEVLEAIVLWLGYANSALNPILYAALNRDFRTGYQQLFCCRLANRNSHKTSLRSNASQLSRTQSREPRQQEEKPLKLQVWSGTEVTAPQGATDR
Chain of UniProt P35348 (whole entry, looked up): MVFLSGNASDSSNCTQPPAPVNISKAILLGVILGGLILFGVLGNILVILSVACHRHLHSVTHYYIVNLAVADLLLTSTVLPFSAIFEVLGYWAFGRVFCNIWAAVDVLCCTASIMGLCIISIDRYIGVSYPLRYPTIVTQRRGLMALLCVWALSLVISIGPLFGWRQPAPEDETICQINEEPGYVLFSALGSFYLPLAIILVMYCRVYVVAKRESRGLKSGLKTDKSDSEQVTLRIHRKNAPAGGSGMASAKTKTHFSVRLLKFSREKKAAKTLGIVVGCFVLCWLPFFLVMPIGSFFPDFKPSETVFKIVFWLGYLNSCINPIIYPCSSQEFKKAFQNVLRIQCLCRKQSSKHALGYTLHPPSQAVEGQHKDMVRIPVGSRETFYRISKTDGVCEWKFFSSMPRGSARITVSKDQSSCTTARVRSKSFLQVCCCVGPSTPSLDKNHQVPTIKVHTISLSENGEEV
Chain of UniProt Q8N752 (whole entry, looked up): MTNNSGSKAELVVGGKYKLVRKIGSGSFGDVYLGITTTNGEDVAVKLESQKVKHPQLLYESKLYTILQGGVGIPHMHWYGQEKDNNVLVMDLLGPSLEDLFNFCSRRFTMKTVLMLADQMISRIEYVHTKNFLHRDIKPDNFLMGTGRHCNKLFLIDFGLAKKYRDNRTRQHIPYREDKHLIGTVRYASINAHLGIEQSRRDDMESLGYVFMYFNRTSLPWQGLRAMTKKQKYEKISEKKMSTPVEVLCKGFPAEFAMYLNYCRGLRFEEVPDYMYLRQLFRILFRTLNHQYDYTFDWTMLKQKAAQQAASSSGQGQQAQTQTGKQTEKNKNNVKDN
Chain of UniProt P18089 (whole entry, looked up): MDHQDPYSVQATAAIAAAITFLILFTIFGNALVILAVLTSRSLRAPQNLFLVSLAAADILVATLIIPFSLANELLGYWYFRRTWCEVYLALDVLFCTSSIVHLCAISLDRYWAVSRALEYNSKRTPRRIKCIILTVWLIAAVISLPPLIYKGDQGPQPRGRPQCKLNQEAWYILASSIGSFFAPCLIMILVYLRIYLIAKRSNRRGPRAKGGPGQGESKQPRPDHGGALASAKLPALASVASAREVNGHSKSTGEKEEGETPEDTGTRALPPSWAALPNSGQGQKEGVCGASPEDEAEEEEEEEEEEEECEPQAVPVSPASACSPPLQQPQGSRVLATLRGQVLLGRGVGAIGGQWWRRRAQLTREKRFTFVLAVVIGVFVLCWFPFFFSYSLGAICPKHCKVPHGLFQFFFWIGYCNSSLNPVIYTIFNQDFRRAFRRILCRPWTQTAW
Chain of UniProt P08588 (whole entry, looked up): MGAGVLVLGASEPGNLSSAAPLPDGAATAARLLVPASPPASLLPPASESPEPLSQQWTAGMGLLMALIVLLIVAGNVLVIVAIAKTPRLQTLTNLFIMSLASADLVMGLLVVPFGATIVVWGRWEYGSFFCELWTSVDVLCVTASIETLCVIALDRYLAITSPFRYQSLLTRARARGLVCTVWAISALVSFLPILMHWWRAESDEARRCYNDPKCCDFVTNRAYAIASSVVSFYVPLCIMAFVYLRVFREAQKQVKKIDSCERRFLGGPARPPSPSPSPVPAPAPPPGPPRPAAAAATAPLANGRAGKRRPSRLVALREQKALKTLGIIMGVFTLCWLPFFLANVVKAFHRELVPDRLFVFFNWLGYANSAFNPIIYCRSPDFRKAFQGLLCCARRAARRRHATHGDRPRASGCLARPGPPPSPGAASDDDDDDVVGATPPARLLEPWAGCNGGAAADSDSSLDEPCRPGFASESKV

Study 1
Structure (SMILES): Cc1ccc(NC(=O)c2ccnc(C(F)(F)F)c2)cc1-c1cc(OCCO)nc(N2CCOCC2)c1
Effect on: binding
Concentration: 1 µM
Quantity: remaining binding
CSNK1A1L (Homo sapiens, UniProt Q8N752): 100%
PIK3CA (Homo sapiens, UniProt P42336, Q546K): 80%
MAPK7 (Homo sapiens, UniProt Q13164): 100%

Study 2
Structure (SMILES): O=C(NCc1ncc(C(F)(F)F)cc1Cl)c1ccc2c(c1)C1(CCS(=O)(=O)CC1)[C@@H](C1CC1)N2S(=O)(=O)c1ccc(F)cc1
Effect on: ligand displacement
Concentration: 10 µM
Quantity: inhibition
CHRM4 (Homo sapiens, UniProt P08173): -13.4%
DRD1 (Homo sapiens, UniProt P21728): -42.6%
ADRA2B (Homo sapiens, UniProt P18089): -1.68%
ADRB3 (Homo sapiens, UniProt P13945): -0.77%
ADRB1 (Homo sapiens, UniProt P08588): -1.82%
DRD3 (Homo sapiens, UniProt P35462): 3.82%
ADRA1A (Homo sapiens, UniProt P35348): 1.7%
HRH3 (Homo sapiens, UniProt Q9Y5N1): 6.92%
HRH2 (Homo sapiens, UniProt P25021): 16.5%

Study 3
Host: human
Matrix: microsomes or S9
Concentration: 2 µM
Time: 0.5 h
Quantity: remaining compound
Cc1ccc(Cn2cccc(NC(=O)NC3CCOC3C)c2=O)cc1 (stereo not shown): 52.7%
CCCn1c(=O)c2ccc(C(=O)NC(C)C)cc2n2c(=O)n(Cc3ccc(C)cc3)nc12: > 100%
O=C(C1CCOCC1)N1CCC(Oc2nccnc2N2CCOCC2)C1 (stereo not shown): 7.2%

Study 4
Cell line: A-375
Concentration: 100 µM
Time: 36 h
Quantity: viability
N[C@@H](Cc1c[nH]c2ccc(O)cc12)C(=O)O: 119%
O=C(O)CCCC[C@@H]1CCSS1: 94.9%
CN1CCC(=C2c3ccccc3CC(=O)c3sccc32)CC1: 94.3%
O[C@@H](c1cc(C(F)(F)F)nc2c(C(F)(F)F)cccc12)[C@H]1CCCCN1: -1.04%

For quick reference, copied from above (study 2):
CHRM4 (Homo sapiens, UniProt P08173): -13.4%
DRD1 (Homo sapiens, UniProt P21728): -42.6%
